# Experimental data of several laboratories.
# Protocols differ between the studies behind these lines. ± gives the spread as reported. Bridge positions count the residues as written; N and C are the ends. Ends that are not written are not given here. * marks the point of attachment.
# Organism: Escherichia coli
Substance,assay,test system,conditions,how to read,endpoint,result
CC[C@H](C)[C@@H]1NC(=O)[C@H](CCC(=O)O)NC(=O)[C@@H]2CSSC[C@@H]3NC(=O)[C@H](Cc4ccc(O)cc4)NC(=O)[C@@H](NC(=O)[C@@H](NC(=O)[C@H](C)N)[C@@H](C)O)CSSC[C@@H](C(=O)N[C@@H](CCCNC(=N)N)C(=O)O)NC(=O)[C@H](CSSC[C@H](NC(=O)[C@H](CCCNC(=N)N)NC(=O)CNC(=O)[C@H]([C@@H](C)O)NC(=O)[C@H](CCCNC(=N)N)NC3=O)C(=O)N[C@@H](C)C(=O)N[C@@H]([C@@H](C)O)C(=O)N[C@@H](CCCNC(=N)N)C(=O)N[C@@H](CCC(=O)O)C(=O)N[C@@H](CO)C(=O)N[C@@H](CC(C)C)C(=O)N[C@@H](CO)C(=O)NCC(=O)N[C@@H](C(C)C)C(=O)N2)NC(=O)[C@H](CC(C)C)NC(=O)[C@H](CCCNC(=N)N)NC(=O)[C@H](Cc2ccc(O)cc2)NC(=O)[C@H](CC(C)C)NC(=O)[C@H](CCCNC(=N)N)NC(=O)CNC(=O)[C@H](CO)NC1=O,antimicrobial,ATCC 25922,"pH 7.4, 1% TSB",99.99% killing,lethal concentration,~4 µM
CCCCN1C=C(c2ccc3ccccc3n2)C(C[N+](=O)[O-])c2ccccc21 (stereo not shown),lacZ reporter expression,VirF-independent lacZ control,"3 h, 37 °C, 6.2% DMSO, with: 1 mM IPTG",,IC50,> 100 µM
CC(C)C[C@H](NC(=O)[C@H](CCCCN)NC(=O)[C@H](CCCNC(=N)N)NC(=O)[C@@H](NC(=O)[C@H](CCCCN)NC(=O)[C@H](CCCCN)NC(=O)[C@@H](NC(=O)[C@H](Cc1ccccc1)NC(=O)[C@H](CCCNC(=N)N)NC(=O)[C@@H](N)CCCNC(=N)N)C(C)C)C(C)C)C(=O)N[C@H](C(=O)N[C@@H](CCCCN)C(=O)O)C(C)C,"bacterial killing, colony count",BL21,"1 h, pH 7, 37 °C",,EC50,3.1 µg/mL
CC(C)C[C@H](NC(=O)[C@H](C)NC(=O)[C@H](CC(C)C)NC(=O)[C@H](CCCCN)NC(=O)[C@H](CCCCN)NC(=O)[C@H](Cc1c[nH]c2ccccc12)NC(=O)[C@H](CC(C)C)NC(=O)[C@@H]1CCCN1C(=O)[C@H](C)NC(=O)[C@H](CC(C)C)NC(=O)[C@H](CCCCN)NC(=O)[C@H](CCCCN)NC(=O)[C@H](CC(C)C)NC(=O)[C@H](C)NC(=O)[C@H](CC(C)C)NC(=O)[C@H](C)NC(=O)[C@H](CC(C)C)NC(=O)[C@H](CCCCN)NC(=O)[C@@H](N)CCCCN)C(=O)N[C@@H](C)C(=O)N[C@@H](CC(C)C)C(=O)N[C@@H](CCCCN)C(=O)N[C@@H](CCCCN)C(=O)N[C@@H](C)C(N)=O,broth microdilution,NCTC 9001,"overnight, 37 °C",,MIC50,0.97 ± 0.06 µM
GIGKWLHSAKKFGKAFVGEIMNS-NH2 (C-amide),"bacterial growth, broth microdilution","peptide, TOP10, Mueller-Hinton broth","overnight, 37 °C",,MIC50,1.25 ± 0.28 µg/mL
CC(=O)NC(C)(C)C(=O)N1CCC[C@H]1C(=O)NC(C)(C)C(=O)N[C@@H](C)C(=O)NC(C)(C)C(=O)N[C@@H](C)C(=O)N[C@@H](CCC(N)=O)C(=O)NC(C)(C)C(=O)N[C@H](C(=O)NC(C)(C)C(=O)NCC(=O)N[C@@H](CC(C)C)C(=O)NC(C)(C)C(=O)N1CCC[C@H]1C(=O)N[C@H](C(=O)NC(C)(C)C(=O)NC(C)(C)C(=O)N[C@@H](CCC(=O)O)C(=O)N[C@@H](CCC(N)=O)C(=O)N[C@H](CO)Cc1ccccc1)C(C)C)C(C)C,,K-12 sample A (CGSC sample B),,,MBC,10 µM
GSS(Octanoyl)FLSPEHQRVQQRKESKKPPAKLQPR (acyl-ghrelin; Octanoyl = CCCCCCCC(=O)*; sequence looked up),LIVE/DEAD staining,"peptide, sodium phosphate buffer","200 µg/mL, 2 h, pH 6.8, 37 °C",,dead bacteria,~75%
CC(C)C[C@H](NC(=O)[C@H](C)NC(=O)[C@H](CC(C)C)NC(=O)[C@H](CCCCN)NC(=O)[C@H](CC(C)C)NC(=O)[C@H](CCCCN)NC(=O)[C@@H](N)CCCCN)C(=O)N[C@@H](C)C(=O)N[C@@H](CCCCN)C(=O)N[C@@H](CC(C)C)C(=O)N[C@@H](C)C(=O)N1CCC[C@H]1C(=O)N[C@@H](CC(C)C)C(=O)N[C@@H](Cc1c[nH]c2ccccc12)C(=O)N[C@@H](CCCCN)C(=O)N[C@@H](C)C(=O)N[C@@H](CC(C)C)C(=O)N[C@@H](C)C(=O)N[C@@H](CC(C)C)C(=O)N[C@@H](CCCCN)C(=O)N[C@@H](CC(C)C)C(=O)N[C@@H](CCCCN)C(=O)N[C@@H](CCCCN)C(=O)N[C@@H](C)C(N)=O,broth microdilution,TOP10,"overnight, 37 °C",,MIC50,0.38 ± 0.08 µM
CC[C@H](C)[C@H](NC(=O)[C@H](C)NC(=O)[C@H](CCCCN)NC(=O)[C@@H](NC(=O)[C@@H]1CCCN1C(=O)[C@@H](NC(=O)[C@H](CCCCN)NC(=O)[C@H](C)N)[C@@H](C)CC)[C@@H](C)CC)C(=O)N[C@@H](CCCCN)C(=O)N[C@H](C(=O)N[C@H](C(=O)NCC(=O)N[C@@H](CCCCN)C(=O)N[C@@H](C)C(=O)N[C@H](C(=O)NCC(=O)N[C@@H](CCCCN)C(=O)NCC(=O)N[C@@H](CC(C)C)C(=O)N[C@@H](CCCNC(=N)N)C(=O)N[C@@H](C)C(=O)N[C@H](C(=O)N[C@@H](CC(N)=O)C(=O)N[C@H](C(=O)N[C@@H](C)C(=O)N[C@@H](CO)C(=O)N[C@H](C(=O)N[C@@H](C)C(=O)N[C@@H](CC(N)=O)C(=O)N[C@@H](CC(=O)O)C(=O)N[C@H](C(=O)N[C@@H](Cc1ccccc1)C(=O)N[C@@H](CC(N)=O)C(=O)N[C@@H](Cc1ccccc1)C(=O)N[C@@H](CC(C)C)C(=O)N[C@@H](CCCCN)C(=O)N1CCC[C@H]1C(=O)N[C@@H](CCCCN)C(=O)N[C@@H](CCCCN)C(=O)N[C@@H](CCCNC(=N)N)C(=O)N[C@@H](CCCCN)C(=O)N[C@@H](Cc1c[nH]cn1)C(=O)O)C(C)C)[C@@H](C)O)[C@@H](C)CC)[C@@H](C)CC)C(C)C)C(C)C)[C@@H](C)O,,DH5α,"24 h, 37 °C",,MBC,2 µM
CC(C)C[C@H](NC(=O)[C@H](C)NC(=O)[C@H](CC(C)C)NC(=O)[C@H](CCCCN)NC(=O)[C@H](CCCCN)NC(=O)[C@H](Cc1c[nH]c2ccccc12)NC(=O)[C@H](CC(C)C)NC(=O)[C@H](CC(C)C)NC(=O)[C@H](C)NC(=O)[C@H](CC(C)C)NC(=O)[C@H](CCCCN)NC(=O)[C@H](CCCCN)NC(=O)[C@@H]1CCCN1C(=O)[C@H](C)NC(=O)[C@H](CC(C)C)NC(=O)[C@H](C)NC(=O)[C@H](CC(C)C)NC(=O)[C@H](CCCCN)NC(=O)[C@@H](N)CCCCN)C(=O)N[C@@H](C)C(=O)N[C@@H](CC(C)C)C(=O)N[C@@H](CCCCN)C(=O)N[C@@H](CCCCN)C(=O)N[C@@H](C)C(N)=O,broth microdilution,TOP10,"overnight, 37 °C",,MIC50,0.45 ± 0.1 µM
ACPIFTKIQGTYRGKAKCK (disulfide 2-18 (inferred)) (disulfide),,K-12 sample A (CGSC sample B),"MBC, 2 h, pH 7.4, 37 °C, with: E. coli K-235 LPS at peptide:LPS 1:5 w/w",,antibacterial activity,inhibited
CC(C)C[C@H](NC(=O)[C@H](C)NC(=O)[C@H](CC(C)C)NC(=O)[C@H](CCCCN)NC(=O)[C@H](CCCCN)NC(=O)[C@H](Cc1c[nH]c2ccccc12)NC(=O)[C@H](CC(C)C)NC(=O)[C@H](CC(C)C)NC(=O)[C@H](C)NC(=O)[C@@H]1CCCN1C(=O)[C@H](CCCCN)NC(=O)[C@H](CCCCN)NC(=O)[C@H](CC(C)C)NC(=O)[C@H](C)NC(=O)[C@H](CC(C)C)NC(=O)[C@H](C)NC(=O)[C@H](CC(C)C)NC(=O)[C@H](CCCCN)NC(=O)[C@@H](N)CCCCN)C(=O)N[C@@H](C)C(=O)N[C@@H](CC(C)C)C(=O)N[C@@H](CCCCN)C(=O)N[C@@H](CCCCN)C(=O)N[C@@H](C)C(N)=O,broth microdilution,NCTC 9001,"overnight, 37 °C",,MIC50,0.78 ± 0.01 µM
CC[C@H](C)[C@H](NC(=O)[C@H](CCCNC(=N)N)NC(=O)[C@H](Cc1c[nH]c2ccccc12)NC(=O)[C@H](CCCNC(=N)N)NC(=O)[C@@H](N)CCCCN)C(=O)N[C@@H](CCCNC(=N)N)C(=O)N[C@H](C(=O)N[C@@H](CCCNC(=N)N)C(=O)N[C@H](C(=O)N[C@H](C(=O)N[C@@H](CCCNC(=N)N)C(=O)N[C@@H](CCCCN)C(=O)N[C@@H](CS)C(=O)O)[C@@H](C)CC)C(C)C)C(C)C,,ATCC 25922,"90, 300, 500 µM, 24 h, biofilm",,MBEC,300 µM

# Some of these lines once more:
Substance,assay,test system,conditions,how to read,endpoint,result
CC(C)C[C@H](NC(=O)[C@H](C)NC(=O)[C@H](CC(C)C)NC(=O)[C@H](CCCCN)NC(=O)[C@H](CCCCN)NC(=O)[C@H](Cc1c[nH]c2ccccc12)NC(=O)[C@H](CC(C)C)NC(=O)[C@H](CC(C)C)NC(=O)[C@H](C)NC(=O)[C@@H]1CCCN1C(=O)[C@H](CCCCN)NC(=O)[C@H](CCCCN)NC(=O)[C@H](CC(C)C)NC(=O)[C@H](C)NC(=O)[C@H](CC(C)C)NC(=O)[C@H](C)NC(=O)[C@H](CC(C)C)NC(=O)[C@H](CCCCN)NC(=O)[C@@H](N)CCCCN)C(=O)N[C@@H](C)C(=O)N[C@@H](CC(C)C)C(=O)N[C@@H](CCCCN)C(=O)N[C@@H](CCCCN)C(=O)N[C@@H](C)C(N)=O,broth microdilution,NCTC 9001,"overnight, 37 °C",,MIC50,0.78 ± 0.01 µM
